Published values collected from several papers.
Lines come from different studies, so protocols differ. ± gives the spread as reported.
Methionyl-tRNA synthetase, putative: Methionyl-tRNA synthetase, putative (Trypanosoma brucei brucei, UniProt Q38C91)
CXCR4: C-X-C chemokine receptor type 4 (CXCR4, Homo sapiens, UniProt P61073)
UniProt P61073, sequence (whole entry, looked up): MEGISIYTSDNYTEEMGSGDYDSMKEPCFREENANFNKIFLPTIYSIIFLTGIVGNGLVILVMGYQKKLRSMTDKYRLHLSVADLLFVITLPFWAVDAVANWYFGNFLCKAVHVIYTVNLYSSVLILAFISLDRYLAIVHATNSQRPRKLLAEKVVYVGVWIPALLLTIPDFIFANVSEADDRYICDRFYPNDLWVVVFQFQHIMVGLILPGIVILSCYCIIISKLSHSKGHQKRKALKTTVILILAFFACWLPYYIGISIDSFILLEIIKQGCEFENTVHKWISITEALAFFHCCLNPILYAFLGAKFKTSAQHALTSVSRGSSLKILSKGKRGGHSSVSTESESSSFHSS
EHMT2: Histone-lysine N-methyltransferase EHMT2 (EHMT2, Homo sapiens, UniProt Q96KQ7)
UniProt Q96KQ7, sequence (whole entry, looked up): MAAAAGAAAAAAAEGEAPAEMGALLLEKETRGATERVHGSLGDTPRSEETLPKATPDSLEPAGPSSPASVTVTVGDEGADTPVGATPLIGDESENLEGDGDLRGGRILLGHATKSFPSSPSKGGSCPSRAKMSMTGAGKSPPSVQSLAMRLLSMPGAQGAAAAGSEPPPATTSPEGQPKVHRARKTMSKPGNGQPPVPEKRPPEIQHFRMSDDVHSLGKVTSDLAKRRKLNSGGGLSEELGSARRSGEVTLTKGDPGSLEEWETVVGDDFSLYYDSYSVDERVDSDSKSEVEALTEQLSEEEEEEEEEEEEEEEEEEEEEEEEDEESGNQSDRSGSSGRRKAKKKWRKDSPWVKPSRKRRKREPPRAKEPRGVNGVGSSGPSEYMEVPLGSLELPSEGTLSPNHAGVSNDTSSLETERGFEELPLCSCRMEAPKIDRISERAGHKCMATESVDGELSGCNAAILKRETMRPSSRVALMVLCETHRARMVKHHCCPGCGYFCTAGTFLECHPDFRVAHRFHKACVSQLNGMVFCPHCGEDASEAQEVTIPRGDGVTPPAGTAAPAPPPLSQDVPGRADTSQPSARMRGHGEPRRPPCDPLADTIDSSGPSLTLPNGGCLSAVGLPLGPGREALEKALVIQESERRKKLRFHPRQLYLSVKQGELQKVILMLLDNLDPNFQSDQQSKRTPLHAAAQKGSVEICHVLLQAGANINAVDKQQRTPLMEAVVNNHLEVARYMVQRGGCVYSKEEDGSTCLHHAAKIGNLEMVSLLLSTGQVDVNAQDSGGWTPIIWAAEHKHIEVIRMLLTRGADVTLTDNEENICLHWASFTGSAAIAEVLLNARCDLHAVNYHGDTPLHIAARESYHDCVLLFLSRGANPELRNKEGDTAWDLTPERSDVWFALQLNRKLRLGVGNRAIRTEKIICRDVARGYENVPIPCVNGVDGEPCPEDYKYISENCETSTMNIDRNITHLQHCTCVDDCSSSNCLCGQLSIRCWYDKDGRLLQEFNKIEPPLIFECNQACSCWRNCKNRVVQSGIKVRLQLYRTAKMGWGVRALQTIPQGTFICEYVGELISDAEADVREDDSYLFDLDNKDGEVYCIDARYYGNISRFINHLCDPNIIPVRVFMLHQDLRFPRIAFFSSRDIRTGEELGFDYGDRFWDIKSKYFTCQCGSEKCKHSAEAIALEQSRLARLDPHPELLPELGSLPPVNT
CELF1 del215-384: CUGBP Elav-like family member 1 (CELF1, Homo sapiens, UniProt Q92879, del215-384)
UniProt Q92879, sequence (whole entry, unmodified, looked up): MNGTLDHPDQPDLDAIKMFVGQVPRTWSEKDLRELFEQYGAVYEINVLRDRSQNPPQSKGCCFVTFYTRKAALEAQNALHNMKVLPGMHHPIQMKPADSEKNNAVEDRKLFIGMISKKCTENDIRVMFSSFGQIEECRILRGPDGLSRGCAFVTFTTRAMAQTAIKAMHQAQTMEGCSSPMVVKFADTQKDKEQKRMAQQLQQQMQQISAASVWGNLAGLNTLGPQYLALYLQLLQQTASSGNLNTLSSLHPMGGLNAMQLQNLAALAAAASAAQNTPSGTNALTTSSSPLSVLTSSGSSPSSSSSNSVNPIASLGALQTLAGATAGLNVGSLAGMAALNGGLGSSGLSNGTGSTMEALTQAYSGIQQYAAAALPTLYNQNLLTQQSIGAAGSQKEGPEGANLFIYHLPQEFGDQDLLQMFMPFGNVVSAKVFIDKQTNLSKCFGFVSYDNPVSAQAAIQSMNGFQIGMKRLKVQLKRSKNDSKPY
UniProt Q6XUX3, sequence (whole entry, looked up): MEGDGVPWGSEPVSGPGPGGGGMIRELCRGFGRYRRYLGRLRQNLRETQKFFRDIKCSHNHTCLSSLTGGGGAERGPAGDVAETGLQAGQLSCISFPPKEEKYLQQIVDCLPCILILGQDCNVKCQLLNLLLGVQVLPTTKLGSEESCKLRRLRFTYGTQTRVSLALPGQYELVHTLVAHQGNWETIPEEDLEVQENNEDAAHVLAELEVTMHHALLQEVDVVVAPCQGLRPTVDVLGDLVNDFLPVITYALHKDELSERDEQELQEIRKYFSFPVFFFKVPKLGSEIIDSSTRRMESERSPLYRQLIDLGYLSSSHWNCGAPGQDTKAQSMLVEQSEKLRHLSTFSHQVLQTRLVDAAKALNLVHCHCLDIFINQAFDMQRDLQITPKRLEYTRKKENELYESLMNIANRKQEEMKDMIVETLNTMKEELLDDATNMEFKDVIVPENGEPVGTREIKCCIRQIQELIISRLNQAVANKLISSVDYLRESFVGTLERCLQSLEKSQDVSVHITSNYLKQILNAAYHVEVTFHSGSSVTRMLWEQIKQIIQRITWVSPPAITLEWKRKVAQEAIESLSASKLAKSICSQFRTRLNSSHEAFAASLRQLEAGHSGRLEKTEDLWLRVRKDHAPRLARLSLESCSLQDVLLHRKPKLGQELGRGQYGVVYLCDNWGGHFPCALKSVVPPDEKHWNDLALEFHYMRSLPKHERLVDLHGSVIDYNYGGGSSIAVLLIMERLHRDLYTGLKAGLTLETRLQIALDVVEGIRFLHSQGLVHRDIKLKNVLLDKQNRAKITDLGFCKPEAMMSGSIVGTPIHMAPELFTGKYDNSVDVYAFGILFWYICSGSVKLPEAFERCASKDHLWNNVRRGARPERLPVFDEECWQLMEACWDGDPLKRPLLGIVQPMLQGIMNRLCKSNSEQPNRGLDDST
UniProt P97583, sequence (whole entry, looked up): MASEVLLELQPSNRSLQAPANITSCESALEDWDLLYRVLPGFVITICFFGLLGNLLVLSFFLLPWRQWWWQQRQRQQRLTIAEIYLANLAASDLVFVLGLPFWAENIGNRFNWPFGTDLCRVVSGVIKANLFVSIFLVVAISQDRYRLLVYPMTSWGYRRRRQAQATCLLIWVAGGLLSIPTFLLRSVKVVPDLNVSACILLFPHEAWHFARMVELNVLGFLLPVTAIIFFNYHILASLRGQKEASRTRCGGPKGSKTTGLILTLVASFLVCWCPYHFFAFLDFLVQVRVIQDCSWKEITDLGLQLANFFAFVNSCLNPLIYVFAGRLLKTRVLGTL
UniProt P28065, sequence (whole entry, looked up): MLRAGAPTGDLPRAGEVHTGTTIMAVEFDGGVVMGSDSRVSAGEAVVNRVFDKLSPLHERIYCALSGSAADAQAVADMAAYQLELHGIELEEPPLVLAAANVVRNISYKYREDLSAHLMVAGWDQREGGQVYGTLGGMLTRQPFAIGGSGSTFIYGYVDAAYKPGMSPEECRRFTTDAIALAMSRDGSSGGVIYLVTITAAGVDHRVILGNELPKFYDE
UniProt P17948, sequence (whole entry, looked up): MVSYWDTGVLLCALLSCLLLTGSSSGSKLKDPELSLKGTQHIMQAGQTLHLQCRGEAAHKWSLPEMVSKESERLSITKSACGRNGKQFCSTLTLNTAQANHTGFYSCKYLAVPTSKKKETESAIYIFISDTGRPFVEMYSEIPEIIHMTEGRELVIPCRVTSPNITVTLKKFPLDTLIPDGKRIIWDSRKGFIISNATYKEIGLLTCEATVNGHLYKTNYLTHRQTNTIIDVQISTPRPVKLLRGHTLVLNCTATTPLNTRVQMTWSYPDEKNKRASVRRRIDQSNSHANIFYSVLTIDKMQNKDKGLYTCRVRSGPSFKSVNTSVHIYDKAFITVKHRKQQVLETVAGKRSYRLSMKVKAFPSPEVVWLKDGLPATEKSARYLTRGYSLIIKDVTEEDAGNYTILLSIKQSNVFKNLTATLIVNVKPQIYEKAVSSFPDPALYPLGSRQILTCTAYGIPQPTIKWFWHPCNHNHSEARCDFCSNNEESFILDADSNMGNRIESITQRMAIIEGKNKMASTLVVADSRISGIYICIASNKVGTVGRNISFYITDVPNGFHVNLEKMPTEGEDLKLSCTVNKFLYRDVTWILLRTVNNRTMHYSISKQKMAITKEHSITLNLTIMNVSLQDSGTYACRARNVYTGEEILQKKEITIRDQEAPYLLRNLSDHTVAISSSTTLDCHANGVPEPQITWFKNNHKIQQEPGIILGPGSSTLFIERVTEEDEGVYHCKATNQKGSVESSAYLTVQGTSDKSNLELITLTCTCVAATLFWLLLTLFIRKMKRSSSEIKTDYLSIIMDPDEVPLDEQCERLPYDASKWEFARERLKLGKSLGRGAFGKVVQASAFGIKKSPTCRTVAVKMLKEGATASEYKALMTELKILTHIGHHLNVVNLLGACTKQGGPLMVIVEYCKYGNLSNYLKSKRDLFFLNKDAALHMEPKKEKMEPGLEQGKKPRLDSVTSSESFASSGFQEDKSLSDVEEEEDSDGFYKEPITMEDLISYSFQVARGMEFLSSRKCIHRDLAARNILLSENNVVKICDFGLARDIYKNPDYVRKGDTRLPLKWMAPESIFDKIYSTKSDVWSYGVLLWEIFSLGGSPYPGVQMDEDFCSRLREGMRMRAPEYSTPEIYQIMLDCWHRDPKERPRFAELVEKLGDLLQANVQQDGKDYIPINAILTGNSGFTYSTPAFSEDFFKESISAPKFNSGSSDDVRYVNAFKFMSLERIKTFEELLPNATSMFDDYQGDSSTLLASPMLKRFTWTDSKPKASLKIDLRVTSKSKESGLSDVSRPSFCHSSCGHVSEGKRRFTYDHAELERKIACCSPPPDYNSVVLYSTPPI
UniProt P14555, sequence (whole entry, looked up): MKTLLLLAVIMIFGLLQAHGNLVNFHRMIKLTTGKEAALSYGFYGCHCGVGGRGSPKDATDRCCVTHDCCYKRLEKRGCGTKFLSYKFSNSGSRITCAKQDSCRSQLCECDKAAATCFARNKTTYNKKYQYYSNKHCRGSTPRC

CO[C@@H]1[C@@H](OC(=O)c2ccc(C)[nH]2)[C@@H](O)[C@H](Oc2ccc3c(O)c(NC(=O)c4c[nH]c(C(=O)Nc5c(O)c6ccc(O[C@@H]7OC(C)(C)[C@H](OC)[C@@H](OC(=O)c8ccc(C)[nH]8)[C@H]7O)c(C)c6oc5=O)c4C)c(=O)oc3c2C)OC1(C)C — IC50 (human CMG helicase; helicase activity; with: ATP 0.5 mM): 13.8 µM
N#Cc1ccnc(N2C(=O)CC[C@H]2C(=O)N(c2cncc(F)c2)[C@H](C(=O)NC2CC(F)(F)C2)c2ccccc2Cl)c1 — IC50 (Isocitrate dehydrogenase [NADP], mitochondrial, heterodimer with wild-type (IDH2, Homo sapiens, UniProt P48735, R172K); enzyme activity, inhibitor, NADPH consumption; 16 h, reverse reaction): 72 µM
Fc1ccc2nc(NCCCNCc3cc(Cl)cc(Cl)c3)[nH]c2n1 — IC50 (Methionyl-tRNA synthetase, putative; enzyme activity, inhibitor): < 0.01 µM
CC[C@H](C)[C@H](NC(=O)[C@H](CCCNC(=N)N)NC(=O)[C@@H]1CCCN1C(=O)[C@H](CCCCN)NC(=O)[C@@H](N)CC(C)C)C(=O)O — IC50 (B1 bradykinin receptor (Rattus norvegicus, UniProt P97583); ligand displacement, radioligand; cell membranes): 8.1 µM
Cc1cc(C(=O)Nc2nc3cccc(C)c3n2[C@H]2CCCCN(C(=O)/C=C/CN(C)C)C2)ccn1 — IC50 (BTK (Homo sapiens, UniProt Q06187); enzyme activity, inhibitor, HTRF; mean value): 0.00225 µM
N#Cc1c(N)nc2c(c1-c1ccc(CO)o1)Cc1cccc(O)c1-2 — IC50 (Thymocyte selection-associated high mobility group box protein TOX, with KAT7 (Homo sapiens, UniProt O94900); TOX-KAT7 binding, inhibitor, ELISA; no inhibition at 10 µM): 6 µM
CC(C)C[C@H](NC(=O)c1ccccc1)C(=O)N[C@@H](CC(C)C)C(=O)N[C@H](/C=C/S(C)(=O)=O)Cc1ccc(CN)cc1 — IC50 (PSMB5 (Homo sapiens, UniProt P28074); competitive ABPP; Raji cell lysate): > 10 µM
Cc1ncsc1-c1ccc(C(C)NC(=O)C2CC(O)CN2C(=O)C(NC(=O)CCCCCCCCCCN2CCCC(Nc3ncc(Cl)c(Nc4ccccc4S(=O)(=O)C(C)C)n3)C2)C(C)(C)C)cc1 (stereo not drawn) — log2 fold change (22Rv1; RNA-seq, item: ZNF839 mRNA; concentration not given; baseline: DMSO): -1.87
COc1cc2c(cc1NS(=O)(=O)c1ccc(Br)cc1C)n(C)c(=O)n2C — IC50 (Transcription initiation factor TFIID subunit 1, BD2 (TAF1, Homo sapiens, UniProt P21675); inhibitor): 6.49 µM
Cc1nn(-c2cccc(N)c2)c(=O)c2cnc(Nc3ccc(N4CCNCC4)cc3)nc12 — IC50 (FLT1 (Homo sapiens, UniProt P17948); enzyme activity, inhibitor): > 10 µM
C=CC(=O)N1CC2C(=O)N(CCN(C)C)c3c(c4cc(Cl)c(-c5c(O)cccc5F)nc4n(-c4c(C)ccnc4C(C)C)c3=O)N2CC1C (stereo not drawn) — IC50 (ABCB1 (Homo sapiens, UniProt P08183); inhibitor; MDCK-MDR1): 9.31 µM
S=C(NCC1(N2CCCCC2)CCCCC1)NC1CC2CCC1C2 (stereo not drawn) — IC50 (CXCR4; β-arrestin recruitment, antagonist): 20 µM
O=C1C(Cl)=C(NCCNCCO)C(=O)c2ccccc21 — IC50 (EHMT2; enzyme activity, inhibitor): 1.3 µM
CC(C)C[C@H](NC(=O)[C@H](Cc1ccc(CN)cc1)NC(=O)[C@H](Cc1ccccc1)N=[N+]=[N-])C(=O)N[C@@H](CC1CCC2CCCCC2C1)C(=O)[C@@]1(C)CO1 (stereo partly drawn) — IC50 (Proteasome subunit beta type-9 (Homo sapiens, UniProt P28065); competitive ABPP; Raji cell lysate): > 10 µM
Cc1c(COc2cc(OCc3cccc(C#N)c3)c(CNC(C)(CO)CO)cc2Cl)cccc1-c1cccc(OCCCCCCC(=O)NO)c1 — IC50 (Programmed cell death 1 ligand 1, with PD-1 (CD274, Homo sapiens, UniProt Q9NZQ7); PD-1/PD-L1 binding, inhibitor, HTRF): 0.0224 µM
Cn1c(S)nnc1-c1ccc(F)cc1 — IC50 (CELF1 del215-384; CELF1-RNA binding, inhibitor, fluorescence polarization; CELF1 20 nM, with: RNA 10 nM): 0.71 ± 0.03 µM
C[C@@H](O)[C@@H]1NC(=O)[C@H](CCCCN)NC(=O)[C@@H](Cc2ccc(NC(N)=O)cc2)NC(=O)[C@H](Cc2ccc(O)cc2)NC(=O)[C@H](NC(=O)[C@H](Cc2ccc(Cl)cc2)NC(=O)CN2CCN(CC(=O)O)CCN(CC(=O)O)CCN(CC(=O)O)CC2)CSSC[C@@H](C(=O)N[C@@H](Cc2ccc3ccccc3c2)C(N)=O)NC1=O — IC50 (SSTR3 (Homo sapiens, UniProt P32745); ligand displacement, radioligand): > 1 µM
Cc1nc2ccccc2c(=O)n1N — IC50 (Phospholipase A2, membrane associated (Homo sapiens, UniProt P14555); enzyme activity, inhibitor, colorimetric): 32 ± 0.85 µM
COCCN(C)CC(=O)NC(Cc1ccc(-c2ccccc2)cc1)B(O)O (stereo not drawn) — IC50 (20S proteasome beta subunits, part β2 subunit (Plasmodium falciparum, UniProt Q8I261+Q8I6T3); β2 activity, inhibitor; with: Ac-WLR-AMC): > 10 µM
Nc1ncc2c(n1)-c1c([nH]c3ccc(C#CC4CC4)cc13)CCCC2 — IC50 (DSTYK (Homo sapiens, UniProt Q6XUX3); enzyme activity, inhibitor, radiometric): 6.4 µM
NC(N)=NS(=O)(=O)c1ccc(NC(=O)/C=C\C(=O)O)cc1 — IC50 (DPP4 (Homo sapiens, UniProt P27487); enzyme activity, inhibitor, fluorescence): 43.2 µM
CC1Cc2ccccc2N1Cc1ccoc1C(=O)Nc1ccc(S(N)(=O)=O)cc1 (stereo not drawn) — IC50 (CA9 (Homo sapiens, UniProt Q16790); enzyme activity, inhibitor): 0.012 µM
O=C1C(Cl)=C(NCCN2CCOCC2)C(=O)c2ncccc21 — IC50 (EHMT2; enzyme activity, inhibitor): 6.5 µM
C#CCNC(=O)c1ccc(S(=O)(=O)N[C@@H](CCCCNC(C)=S)C(=O)N[C@@H](CCCNC(=N)N)C(=O)N[C@@H](CC2CCCCC2)C(N)=O)cc1 — IC50 (SIRT3 (Homo sapiens, UniProt Q9NTG7); enzyme activity, inhibitor, fluorescence): 0.91 µM
Nc1nc2nc[nH]c2c(=S)[nH]1 — IC50 (CELF1 del215-384; CELF1-RNA binding, inhibitor, fluorescence polarization; 20 nM CELF1, with: 10 nM RNA): 18.7 ± 5.18 µM
O=C(Nc1ccccc1)Nc1ccccc1O — IC50 (SRPK3 (Homo sapiens, UniProt Q9UPE1); enzyme activity, inhibitor, FRET): 6.5 µM
Fc1ccc2nc(NCCCN[C@@H]3CCNc4c(Cl)cc(Cl)cc43)[nH]c2n1 — IC50 (Methionyl-tRNA synthetase, putative; enzyme activity, inhibitor): < 0.01 µM
CS(=O)(=O)c1ccc(-c2cc(Cl)c(C(=O)N[C@@H](CNC(=O)CNC(=O)c3cccc(NC(=N)N)c3)C(=O)O)c(Cl)c2)cc1 — IC50 (Integrin alpha-5/beta-1 (Homo sapiens, UniProt P05556+P08648); cell adhesion, inhibitor; SW480; with: fibronectin 0.3 µg/mL): 0.00398 µM
CCCCCCCCCCCC=O — IC50 (uncharacterized protein (Spodoptera exigua, UniProt F1CEY0); binding, fluorescence competitive binding; with: 1-NPN 2.0 µM): 6.96 µM
CN1C(=O)[C@@H](Cc2ccc(O)cc2)NC(=O)CNC(=O)[C@H](Cc2ccc3ccccc3c2)NC(=O)[C@H](CCCNC(=N)N)NC(=O)[C@H]1CCCNC(=O)c1ccc(CNC(=O)CN2CCN(CC(=O)O)CCN(CC(=O)O)CCN(CC(=O)O)CC2)cc1 — IC50 (CXCR4): 0.15 µM

Repeated from above:
NC(N)=NS(=O)(=O)c1ccc(NC(=O)/C=C\C(=O)O)cc1 — IC50 (DPP4 (Homo sapiens, UniProt P27487); enzyme activity, inhibitor, fluorescence): 43.2 µM
CC1Cc2ccccc2N1Cc1ccoc1C(=O)Nc1ccc(S(N)(=O)=O)cc1 (stereo not drawn) — IC50 (CA9 (Homo sapiens, UniProt Q16790); enzyme activity, inhibitor): 0.012 µM
O=C1C(Cl)=C(NCCN2CCOCC2)C(=O)c2ncccc21 — IC50 (EHMT2; enzyme activity, inhibitor): 6.5 µM
C#CCNC(=O)c1ccc(S(=O)(=O)N[C@@H](CCCCNC(C)=S)C(=O)N[C@@H](CCCNC(=N)N)C(=O)N[C@@H](CC2CCCCC2)C(N)=O)cc1 — IC50 (SIRT3 (Homo sapiens, UniProt Q9NTG7); enzyme activity, inhibitor, fluorescence): 0.91 µM
Nc1nc2nc[nH]c2c(=S)[nH]1 — IC50 (CELF1 del215-384; CELF1-RNA binding, inhibitor, fluorescence polarization; 20 nM CELF1, with: 10 nM RNA): 18.7 ± 5.18 µM
